Published values of several laboratories.
Lines come from different studies, so protocols differ. Several values in a cell are separate wells, animals, samples, runs or records. ± marks the error that the study gave.
Ubiquitin carboxyl-terminal hydrolase 39 ZnF-UBD domain: Ubiquitin carboxyl-terminal hydrolase 39, ZnF-UBD domain (Homo sapiens, UniProt Q53GS9)
BRD3 BD1: Bromodomain-containing protein 3, BD1 (BRD3, Homo sapiens, UniProt Q15059)
TOP2A: DNA topoisomerase 2-alpha (TOP2A, Homo sapiens, UniProt P11388)
Alpha-carbonic anhydrase: Alpha-carbonic anhydrase (Enterococcus faecium, UniProt Q3XYE8)

O=C(O)COc1cnc2ccccc2n1  Kd (Ubiquitin carboxyl-terminal hydrolase 39 ZnF-UBD domain): > 1000 µM
COc1cc(-c2cc(C(C)=O)n3ccccc23)c(OC)cc1Cn1ccnc1  ΔTm (BRD3 BD1): 4 °C
CC(=O)N[C@H](C(=O)N1C[C@H](O)C[C@H]1C(=O)NCc1ccc(-c2scnc2C)cc1)C(C)(C)SCCCCCCNC(=O)C[C@@H]1N=C(c2ccc(Cl)cc2)c2c(sc(C)c2C)-n2c(C)nnc21  −TΔS (BRD3 BD1; binding, ITC; 25 °C, compound in cell, protein in syringe): 8.2 ± 0.2 kcal/mol
N#Cc1ccc2c(CN3CCOCC3)cc(-c3ccc([C@H]4CCC(=O)N4)cc3)nc2c1  FRET efficiency (Advanced glycosylation end product-specific receptor, with DIAPH1 (AGER, Homo sapiens, UniProt Q15109); acceptor photobleaching; HEK-293T expressing RAGE-eCFP; 5.0 µM, 60 min): 1.6 ± 0.4%
O=C(O)c1cccc(-c2noc(-c3ccccc3F)n2)c1  koff (Flavin reductase (NADPH) (BLVRB, Homo sapiens, UniProt P30043); binding): 0.012 s⁻¹
CN1CCC[C@H]1c1cccnc1  kon (Chrnd/Chrna1/Chrne (Mus musculus, UniProt P02716+P04756+P20782, G173R)): 4.33e+07 M⁻¹ s⁻¹
O=c1nc(SCc2ccc(C(F)(F)F)cc2)nc(SCc2csc3ccc(Cl)cc23)[nH]1  mean decatenated DNA (TOP2A; decatenation; 1.95 µM): 0%
O=C(O)CCc1cnccn1  Kd (Ubiquitin carboxyl-terminal hydrolase 39 ZnF-UBD domain): > 1000 µM
CC1CCC(CC(=O)Nc2nnc(S(N)(=O)=O)s2)CC1 (stereo not shown)  Ki (Alpha-carbonic anhydrase; CO2 hydration, inhibitor, stopped-flow kinetics): 0.0298 µM
NCCCS(=O)(=O)O  normalised MST signal (Sodium- and chloride-dependent taurine transporter (SLC6A6, Homo sapiens, UniProt P31641, G62A); binding, microscale thermophoresis; 250 µM, room temperature, with: 50 nM labelled protein; higher = more binding): 0.00205
C#Cc1cc(-c2cc(Nc3nc(N[C@@H](C)c4ccc(F)cn4)ncc3Cl)n[nH]2)ccc1C=O  inhibition (Cyclin-dependent kinase 4 (CDK4, Homo sapiens, UniProt P11802); enzyme activity, inhibitor; 0.2 µM): 5.39%
CCS(=O)(=O)N1CC(CC#N)(n2cc(-c3ncnc4[nH]ccc34)cn2)C1  fraction of accessible fluorescence (Alpha-1-acid glycoprotein 1 (ORM1, Homo sapiens, UniProt P02763); modified Stern-Volmer; 298 K): 0.62
CCOc1ccc(NC(=O)O[C@@H](Cn2nc(C(C)C)cc2C(C)C)C(C)C)cc1  current (Neuronal acetylcholine receptor; alpha4/beta2, (α4)2(β2)3 stoichiometry (Homo sapiens, UniProt P17787+P43681); ACh-evoked current, two-electrode voltage clamp; 1 µM, high-sensitivity stoichiometry, with: ACh 10 µM; baseline: ACh alone): 957 ± 69%
c1ccc(-c2n[nH]cc2-c2ccnc3ccccc23)nc1  log2 fold change (Negative regulator of the PHO system (PHO85, Candida albicans, UniProt Q9HGY5); kinase binding, competitor, MIB/MS competition, measured: PHO85; Candida albicans cell lysate; 100 nM; baseline: DMSO): 1.69
COc1cc(/C=C/c2ccc(O)cc2)cc(OC)c1  ΔH of binding (O-methyltransferase (Sorghum bicolor, UniProt A0A1B6PFV1); isothermal titration calorimetry; concentration not given, apo protein): -6.26 ± 0.221 kcal/mol
CC[C@H](C)[C@@H]1NC(=O)[C@H](C)NC(=O)[C@H]([C@@H](C)CC)NC(=O)[C@H](CCC(N)=O)NC(=O)[C@H](C)NC(=O)[C@H](CCCNC(=N)N)NC(=O)[C@H](C(C)C)NC(=O)[C@H](CC(C)C)NC(=O)[C@H](CCC(=O)O)NC(=O)[C@H](CCCNC(=N)N)NC(=O)CNC(=O)[C@@H](NC(=O)[C@H](CC(C)C)NC(=O)[C@H](CCCCN)NC(=O)[C@@H](NC(=O)[C@@H](NC(=O)[C@H](CCC(=O)O)NC(=O)[C@H](CCC(=O)O)NC(=O)[C@H](CCSC)NC(=O)[C@H](Cc2c[nH]c3ccccc23)NC(=O)[C@H](CO)NC(=O)[C@@H](N)CC(=O)O)C(C)C)[C@@H](C)CC)CSSC[C@@H]2NC(=O)[C@@H](NC(=O)[C@H](CCCCN)NC(=O)[C@H](CC(N)=O)NC(=O)[C@H](C)NC(=O)[C@H](CC(C)C)NC(=O)[C@H](C)NC(=O)[C@H](CO)NC(=O)[C@H](Cc3ccc(O)cc3)NC(=O)[C@H](CC(C)C)NC(=O)[C@H](CCC(N)=O)NC(=O)c3ccc(-c4c5ccc(=[N+](C)C)cc-5oc5cc(N(C)C)ccc45)c(C(=O)[O-])c3)CSSC[C@H](NC(=O)CNC(=O)[C@H](C(C)C)NC(=O)[C@H](Cc3c[nH]cn3)NC2=O)C(=O)N[C@@H]([C@@H](C)O)C(=O)N[C@@H](CCCCN)C(=O)N[C@@H](CCCNC(=N)N)C(=O)N[C@@H](CO)C(=O)N[C@@H](CC(C)C)C(=O)N[C@@H](C)C(=O)N[C@@H](CCCNC(=N)N)C(=O)N[C@@H](Cc2ccccc2)C(=O)N[C@H](C(=O)O)CSSC[C@@H](C(=O)NCC(=O)N[C@@H](CCSC)C(=O)N[C@@H](CO)C(=O)N[C@H](C(=O)N[C@@H](Cc2c[nH]c3ccccc23)C(=O)N[C@@H](CO)C(=O)O)[C@@H](C)O)NC1=O  fast dissociation fraction (Relaxin receptor 1 (RXFP1, Homo sapiens, UniProt Q9HBX9); NanoBRET; concentration not given, with: relaxin 10 µM): 21.1%
N[C@@H](Cc1ccccc1)C(=O)Nc1ccc2ccccc2c1  Km (rat neuron-specific aminopeptidase; substrate): 20 µM
c1ccc2[nH]c(-c3cscn3)nc2c1  Hill slope (Glycogen synthase kinase-3 alpha (GSK3A, Homo sapiens, UniProt P49840); kinase activity, inhibitor, Z'-LYTE): 1.05
O=C(O)[C@@H](O)[C@H](O)[C@H](O)CO  z-scored log2 fold change (binding, equilibrium dialysis LC-MS; 5 µM, thermostabilized A2AR-BRIL construct; baseline: no-protein control, direction not given): 0.0978
CCC1(O)CCCN(C(=O)c2ccc(-c3ccc(F)c(NC(=O)CCl)c3)cc2)C1 (stereo not shown)  protein adduct (DNA dC->dU-editing enzyme APOBEC-3B, C-terminal domain (Homo sapiens, UniProt Q9UH17); covalent modifier, intact protein mass spectrometry, measured: adduct +26487 Da; 125 µM, 3 h, 5-fold molar excess): 0%
CC(C)(CNC1(c2cccc(NC3=CC(=O)N(C4CCC(=O)NC4=O)C3=O)c2)CCC1)c1ccc(C(F)(F)F)c(Cl)c1 (stereo not shown)  Dmax (ZBTB11/CRBN (Homo sapiens, UniProt O95625+Q96SW2); protein degradation, degrader, HiBiT luminescence; MOLT-4): 39%
CO[C@H]1O[C@H](COS(=O)(=O)O)[C@@H](O[C@@H]2O[C@@H](C(=O)O)[C@@H](O[C@H]3O[C@H](COS(=O)(=O)O)[C@@H](O[C@@H]4O[C@H](C(=O)O)[C@@H](O[C@H]5O[C@H](COS(=O)(=O)O)[C@@H](O)[C@H](O)[C@H]5NS(=O)(=O)O)[C@H](O)[C@H]4O)[C@H](OS(=O)(=O)O)[C@H]3NS(=O)(=O)O)[C@H](O)[C@H]2OS(=O)(=O)O)[C@H](O)[C@H]1NS(=O)(=O)O  binding enthalpy ΔH (Beta-2-glycoprotein 1, domain V (APOH, Homo sapiens, UniProt P02749, V266L); isothermal titration calorimetry; concentration not given, 298 K, with: 100 mM NaCl): -7.07 ± 0.505 kcal/mol
NS(=O)(=O)c1nnc(NC(=O)C2CCCC3(CCCCC3)C2)s1 (stereo not shown)  Ki (Alpha-carbonic anhydrase; CO2 hydration, inhibitor, stopped-flow kinetics): 0.0625 µM
[2H]c1cc(C)c(NC(=O)c2cnc(Nc3cc(N4CCCCC4)nc(C)n3)s2)c(Cl)c1  inhibition (Tyrosine-protein kinase Yes (YES1, Homo sapiens, UniProt P07947); 0.01 µM): > 90%
COc1cccc2c(Nc3ccc4[nH]c(C(=O)N/N=C/c5ccc(SC)cc5)cc4c3)cc(C)nc12  activation (Nuclear receptor subfamily 5 group A member 2 (NR5A2, Homo sapiens, UniProt O00482); reporter gene, Gal4 hybrid reporter; 3 µM; baseline: vehicle): 1.23 fold
Nc1ccc(C(=O)O)cc1  current density (BEST1, with wild-type BEST1 (Homo sapiens, UniProt O76090, R218H); ion current, whole-cell patch clamp; HEK293 co-expressing mutant and wild-type; concentration not given, voltage -40 mV): -5.24 pA/pF and -3.81 pA/pF and -6.07 pA/pF and -1.62 pA/pF and -9.96 pA/pF and -1.79 pA/pF and -13.4 pA/pF and -9.08 pA/pF
O=S(=O)(O)C1CCNCC1  normalised MST signal (Sodium- and chloride-dependent taurine transporter (SLC6A6, Homo sapiens, UniProt P31641, Y138A); binding, microscale thermophoresis; 250 µM, room temperature, with: 50 nM labelled protein; higher = more binding): 0.0467
Nc1ncnc2c1ncn2[C@@H]1O[C@H](COP(=O)(O)CP(=O)(O)OP(=O)(O)O)[C@@H](O)[C@H]1O  calcium influx (P2X purinoceptor 1 (P2RX1, Homo sapiens, UniProt P51575, K215A); calcium influx; 1 µM; baseline: ionomycin response): 97.6% and 92.5% and 67.8%
O=[N+]([O-])c1ccc(CNc2nc(NCc3cccc(C(F)(F)F)c3)nc3[nH]cnc23)cc1  activity (Inositol-tetrakisphosphate 1-kinase (Homo sapiens, UniProt Q13572); phosphatase activity, luciferase-coupled; concentration not given): inactive
O=C(O)C(O)c1ccccc1 (racemic)  z-scored log2 fold change (binding, equilibrium dialysis LC-MS; 5 µM, thermostabilized A2AR-BRIL construct; baseline: no-protein control, direction not given): 0.438
O=c1nc(SCc2cc(F)cc(C(F)(F)F)c2)nc(SCc2csc3ccc(Cl)cc23)[nH]1  mean linear DNA (TOP2A; DNA cleavage; 7.8 µM): 0%
